Measured values collected from several papers.
Lines come from different studies, so protocols differ. “And” joins repeats or separate records; there may be more than shown. ± gives the spread as reported.
Chain of UniProt Q15303 (whole entry, looked up): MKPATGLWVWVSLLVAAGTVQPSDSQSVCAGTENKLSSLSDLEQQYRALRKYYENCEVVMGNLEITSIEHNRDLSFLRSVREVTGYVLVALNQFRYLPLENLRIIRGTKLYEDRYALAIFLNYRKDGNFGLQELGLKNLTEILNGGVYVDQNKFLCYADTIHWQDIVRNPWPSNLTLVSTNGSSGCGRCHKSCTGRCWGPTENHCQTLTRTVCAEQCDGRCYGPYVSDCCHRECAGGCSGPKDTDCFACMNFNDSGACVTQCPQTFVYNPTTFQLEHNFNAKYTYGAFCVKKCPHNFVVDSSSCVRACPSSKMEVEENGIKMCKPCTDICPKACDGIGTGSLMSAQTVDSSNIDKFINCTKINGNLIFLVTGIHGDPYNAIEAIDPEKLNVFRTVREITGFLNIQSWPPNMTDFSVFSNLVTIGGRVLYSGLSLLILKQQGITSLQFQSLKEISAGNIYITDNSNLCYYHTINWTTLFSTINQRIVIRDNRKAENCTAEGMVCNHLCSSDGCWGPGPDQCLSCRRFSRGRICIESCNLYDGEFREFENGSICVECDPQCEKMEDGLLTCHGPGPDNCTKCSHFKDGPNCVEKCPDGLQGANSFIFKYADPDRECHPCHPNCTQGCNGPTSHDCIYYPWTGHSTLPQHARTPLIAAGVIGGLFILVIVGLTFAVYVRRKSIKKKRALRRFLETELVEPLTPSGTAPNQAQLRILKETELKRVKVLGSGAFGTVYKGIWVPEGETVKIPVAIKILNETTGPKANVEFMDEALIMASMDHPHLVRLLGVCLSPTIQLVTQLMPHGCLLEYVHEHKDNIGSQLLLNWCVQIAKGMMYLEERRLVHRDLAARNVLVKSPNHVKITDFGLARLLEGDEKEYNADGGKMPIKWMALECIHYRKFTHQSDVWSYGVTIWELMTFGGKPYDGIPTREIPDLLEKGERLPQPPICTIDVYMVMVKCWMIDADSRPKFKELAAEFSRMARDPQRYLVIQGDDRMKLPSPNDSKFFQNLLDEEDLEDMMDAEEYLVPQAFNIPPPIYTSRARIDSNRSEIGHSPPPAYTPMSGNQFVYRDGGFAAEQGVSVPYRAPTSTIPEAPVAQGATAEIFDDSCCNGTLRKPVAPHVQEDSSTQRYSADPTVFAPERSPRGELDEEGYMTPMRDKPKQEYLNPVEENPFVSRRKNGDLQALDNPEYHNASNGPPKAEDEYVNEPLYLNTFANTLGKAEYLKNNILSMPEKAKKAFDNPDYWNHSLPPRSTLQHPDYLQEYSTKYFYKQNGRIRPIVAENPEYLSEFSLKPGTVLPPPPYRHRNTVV

`CC1(C)C(/C=C(\Cl)C(F)(F)F)C1C(=O)OC(C#N)c1cccc(Oc2ccccc2)c1` (stereo not drawn): “enzyme contribution to clearance” 0.31% (refers to: CYP2B6; human, age 6 months).
`CC[C@H](C)[C@@H]1NC(=O)[C@@H]2CCCN2C(=O)[C@H](CC(C)C)NC(=O)[C@H](CC(C)C)NC(=O)CNC(=O)[C@@H](NC(=O)[C@@H](NC(=O)[C@H](CC(=O)O)NC(=O)CNC(=O)[C@@H](NC(=O)[C@H](C)NC(=O)CNC(=O)[C@H](CCCCN)NC(=O)[C@H](CC(C)C)NC(=O)[C@H](CC(C)C)NC(=O)[C@H](CCCCN)NC(=O)CNC(=O)[C@@H](NC(=O)[C@@H](N)CC(C)C)C(C)C)C(C)C)C(C)C)CSSC[C@@H](C(=O)O)NC1=O` — result for “log2 fold change”: -2.26 (RNA-seq, refers to: Ebi3; mouse, traumatic brain injury model, frontal cortex and hippocampus; dose not given; baseline: TBI alone).
Under “adverse events incidence”, `Cc1cccc(Cn2nc(C3CC3)c3c(NC(=O)c4cnc5cc(OCCN6CCN(C)CC6)ccn45)cccc32)n1` is recorded as 48.1% (refers to: Nausea; human pancreatic ductal adenocarcinoma; oral, dose not given, all-causality).
The half-life of `CC(=O)c1c(C)c2cnc(Nc3ccc(C4CCN(CCS(C)(=O)=O)CC4)cn3)nc2n(C2CCCC2)c1=O` is reported as 3.92 h (human, plasma; oral, 50 mg twice daily, day 1, single dose, together with: letrozole).
The urea level of `COc1ccc2nc3cc(Cl)ccc3c(Nc3cc(CN4CCCC4)c(O)c(CN4CCCC4)c3)c2n1` is reported as 2.65 µmol/L (mouse, blood; oral, 57 mg/kg).
For `C[C@@H]1OC(=O)NN=C1c1ccc(-c2ccc(F)cc2)c(C(F)(F)F)c1`, “patients with adverse event” read 0% (phase I trial, refers to: Fatigue worst grade 1; human patients; 5 mg once daily).
`Cn1cncc1-c1c(F)cncc1NC(=O)c1c(N)nn2cc(F)cnc12`: “grade ≥3 platelet decrease incidence” 0% (human patients; oral, 80 mg once daily).
For `O=C(Nc1ccccc1)C1CCN(C(=O)Oc2cccnc2)CC1`, “adverse event incidence” read 13% (refers to: Vomiting; healthy female human; concentration not given, all doses pooled).
For `CC(C)[C@@H]1NC(=O)CNC(=O)[C@H](CC(N)=O)NC(=O)[C@H](CCCNC(=N)N)NC(=O)[C@H](Cc2ccc(O)cc2)NC(=O)[C@H](C(C)C)NC(=O)[C@@H](NC(=O)[C@@H](NC(=O)[C@H](CC(N)=O)NC(=O)[C@H](Cc2c[nH]c3ccccc23)NC(=O)[C@H](C)NC(=O)[C@H](Cc2ccccc2)NC(=O)CN)C(C)C)CSSC[C@@H](C(=O)N[C@@H](Cc2c[nH]cn2)C(=O)N[C@@H](CCCNC(=N)N)C(=O)N[C@@H](CCCNC(=N)N)C(=O)N[C@@H](C)C(=O)N[C@@H](CC(N)=O)C(N)=O)NC(=O)[C@H](C(C)C)NC(=O)[C@H](CCCNC(=N)N)NC1=O`, “secondary structure content” read 35.2% (circular dichroism, refers to: antiparallel β-sheet; PBS; 80 µM, pH 7.4).
`CCCCCCCCCCCCCCCC(=O)N[C@@H](CCC(=O)NCCCC[C@H](NC(=O)[C@H](CC(=O)O)NC(=O)[C@H](CO)NC(=O)[C@@H](NC(=O)[C@H](Cc1ccccc1)NC(=O)[C@@H](NC(=O)CNC(=O)[C@H](CCC(N)=O)NC(=O)[C@H](CO)NC(=O)[C@@H](N)Cc1c[nH]cn1)[C@@H](C)O)[C@@H](C)O)C(=O)N[C@@H](CO)C(=O)N[C@@H](CCC(=O)O)C(=O)N[C@@H](Cc1ccc(O)cc1)C(=O)N[C@@H](CC(C)C)C(=O)N[C@@H](CC(=O)O)C(=O)N[C@@H](CO)C(=O)N[C@@H](CCC(=O)O)C(=O)N[C@@H](CCCNC(=N)N)C(=O)N[C@@H](C)C(=O)N[C@@H](CCCNC(=N)N)C(=O)N[C@@H](CC(=O)O)C(=O)N[C@@H](Cc1ccccc1)C(=O)N[C@H](C(=O)N[C@@H](C)C(=O)N[C@@H](Cc1c[nH]c2ccccc12)C(=O)N[C@@H](CC(C)C)C(=O)N[C@@H](CCC(=O)O)C(=O)N[C@@H](C)C(=O)NCC(=O)NCC(=O)O)C(C)C)C(=O)O`: “treatment-related adverse events” 0% (refers to: Flatulence; humans CrCl below 20 mL/min; subcutaneous, 100 µg single dose).
`C[C@@H](NC(=O)N1C(=O)[C@H](Cc2ccnc(N)c2)[C@H]1C(=O)O)C1CCCCC1` — result for “incidence of urine occult blood positive”: 0% (healthy adult Chinese volunteers; continuous intravenous infusion, 2.25 mg/kg/h, 5-day infusion, CTCAE 5.0 grading).
Under jump threshold, `CC(C)C[C@H](NC(=O)[C@H](CCC(N)=O)NC(=O)[C@H](CO)NC(=O)[C@H](CO)NC(=O)[C@H](CCCNC(=N)N)NC(=O)[C@H](CCCNC(=N)N)NC(=O)[C@H](CCCNC(=N)N)NC(=O)[C@H](CC(C)C)NC(=O)[C@H](Cc1c[nH]cn1)NC(=O)[C@@H](NC(=O)[C@H](CCCCN)NC(=O)[C@H](CCCNC(=N)N)NC(=O)[C@H](CCCNC(=N)N)NC(=O)[C@H](CCCNC(=N)N)NC(=O)[C@H](CCC(N)=O)NC(=O)[C@H](CCCNC(=N)N)NC(=O)[C@H](CCCNC(=N)N)NC(=O)[C@H](CCCCN)NC(=O)[C@H](CCCCN)NC(=O)[C@H](CCCNC(=N)N)NC(=O)CNC(=O)[C@@H](N)Cc1ccc(O)cc1)[C@@H](C)O)C(=O)N[C@@H](CCCCN)C(N)=O` is recorded as “no effect” (flinch-jump test; rat; intra-CA1 bilateral, dose not given).
Under “incidence of adverse event”, `COc1cc2c(Oc3ccc4[nH]c(C)cc4c3F)ccnc2cc1OCC1(N)CC1` is recorded as 6.7% (refers to: grade 1 or 2 mouth ulcer; paediatric high-risk refractory sarcoma; 8 mg).
Under “subjects with drug-related TEAEs”, `C[C@]1(CO)Cc2ncn(-c3ccc(C#N)c(Cl)c3)c2C(=O)O1` is recorded as 28.6% (investigator-assessed; human; 20 mg single dose).
`C=CCNc1c(O)cc2c(O)c1C[C@@H](C)C[C@H](OC)[C@H](O)[C@@H](C)/C=C(\C)[C@H](OC(N)=O)[C@@H](OC)/C=C\C=C(/C)C(=O)N2` — result for “patients with fatigue TEAE”: 67% (unresectable or metastatic STS, GIST, other; intravenous, 225 mg/m^2).
`CC(C)[C@H](O)C(=O)N[C@H]1Cc2ccc3c(c2)[C@]2(C4=C(c5nc(CO)co5)N=C(O4)[C@H](C(C)(C)C)NC1=O)c1cc(F)ccc1N[C@@H]2O3` gave an AUC(0-t) of 2890 ng·h/mL (NSG mice, lung; intravenous, 10 mg/kg, single dose at MTD, together with: paclitaxel 40 mg/kg).
For `O=C1Nc2cc3[nH]nc(-c4ccncc4)c3cc2CN1Cc1ccccc1`, “patients with TEAE” read 12% (refers to: Rash; patients with advanced solid tumours; intravenous, dose not given, all schedules).
`O=C(Nc1ccccc1)C1CCN(C(=O)Oc2cccnc2)CC1`: “subjects with respiratory AEs” 0% (healthy female subjects; oral, 20 mg, respiratory, thoracic, mediastinal disorders).
For `O=[N+]([O-])c1ccc2c(c1)S(=O)(=O)C=C2`, the CD4+ cells was 16.9% (flow cytometry; male C57BL/6 mice, spleen; i.p., 10 mg/kg, 8 days; baseline: CD45+ cells).
The concentration of `CN(C(=O)n1cnc(-c2ccc[n+]([O-])c2)c1)C1CCCCC1` is reported as 249 ± 33.2 ng/g (Wistar rat, cerebral cortex; oral, 10 mg/kg, 1 h, single dose).
`CN1CC[C@@H](c2c(O)cc(O)c3c(=O)cc(-c4ccc(C(F)(F)F)cc4Cl)oc23)[C@@H]1CO`: “patients with adverse event” 12.5% (refers to: Sepsis; relapsed or refractory haematological malignancies; oral, dose not given, all arms).
For `CC(=O)[C@H]1[C@H](C#N)C[C@H]2[C@@H]3CC=C4C[C@@H](O)CC[C@]4(C)[C@H]3CC[C@@]21C`, mRNA level read “no effect” (qPCR, refers to: Cyp1a2; wild-type mice, liver; 10 mg/kg, 3 days; baseline: vehicle).
With `S=c1oc(-c2ccccc2)nn1CN1CCN(Cc2ccccc2)CC1` the serum AST was 124 ± 13.4 U/L (Wistar rat female; oral, 500 mg/kg, acute toxicity OECD 423).
`Clc1ccc(Cl)c(-c2cc(Cl)ccc2Cl)c1` gave a concentration of 357 ng/g (Sprague Dawley rat female, adipose tissue; intraperitoneal, 10 mg/kg, 3 weeks).
`Fc1ccc([C@@H]2CCNC[C@H]2COc2ccc3c(c2)OCO3)cc1` — result for “List of Complaints score”: 0 score (refers to: Nausea; healthy volunteers; oral, dose not given, given -1 h relative to LSD, together with: LSD; direction not given).
The mass recovery of `CC(C)(C)c1cc(-n2nc3ccc(Cl)cc3n2)c(O)c(C(C)(C)C)c1` is reported as 48.8% (EpiSkin reconstructed epidermis; 36 h).
`Cc1ccc(F)c2cc(C(=O)N[C@@H]3CCC[C@H](N4CC[C@H](N(C)S(C)(=O)=O)C4)C3)[nH]c12` gave a CL/F of 87 mL/min/kg (CD1 mouse; oral, 100 mg/kg).
The AUC(0-inf) of `CC/C(=C(\c1ccccc1)c1ccc(OCCN(C)C)cc1)c1ccccc1` is reported as 385 ng·h/mL (CD-1 mouse, male, plasma; intraperitoneal, 1 mg/kg).
`CO[C@H]1C[C@@H]2CC[C@@H](C)[C@@](O)(O2)C(=O)C(=O)N2CCCC[C@H]2C(=O)O[C@H]([C@H](C)C[C@@H]2CC[C@@H](OC(=O)NCCOCCOCCOCCOCCOCCOCCOCCOCCC(=O)N3CCc4cc(Cn5nc(-c6ccc7oc(N)nc7c6)c6c(N)ncnc65)ccc4C3)[C@H](OC)C2)C[C@@H](O)[C@H](C)/C=C(\C)[C@@H](O)[C@@H](OC)C(=O)[C@H](C)C[C@H](C)/C=C/C=C/C=C/1C` — result for “decreased appetite leading to dose reduction”: 0% (dose-escalation trial; patients with advanced solid tumours; intravenous, 1.6 mg/3 mg weekly, grade ≥3).
`COc1ccc(-c2c(-c3ccc(C#N)c(F)c3)nc(N3CCC(N)CC3)n(C)c2=O)cc1F` — result for “serious adverse event incidence”: 0% (refers to: Urticaria; human patients; oral, 60 mg, dose expansion).
For `COc1ncccc1-c1cnn2ccc(N3CCN(C(=O)OC(C)C)CC3)nc12`, the drug concentration was 6.3 µM (mouse, SNL model, plasma; oral, 30 mg/kg, 120 min).
For `O=C(O)CCC(CP(=O)(O)O)C(=O)O` (stereo not drawn), the measured concentration was 0.318 ± 0.017 µg/mL (rat plasma; 0.3 µg/mL, freeze-thaw cycle 2 at -80 °C).
For `COc1cccc(Oc2ccccc2NC(=O)CNC(=O)c2cccc3ccccc23)c1`, the serum creatinine was 0.1 mg/dL and 0.2 mg/dL (esterase-deficient SCID mice, male; oral, 15 mg/kg/day, 14 days, toxicity study).
`NC(=O)[C@H]1CCN(c2ncnc(N)c2F)C[C@@H]1N1CCC[C@@H](Nc2cc(Cl)cc(C(F)(F)F)c2)C1=O`: “grade ≥3 thrombocytopenia” 0% (B-cell malignancy patients; oral, 328 mg twice daily, dose).
Under “blood chemistry level”, `O=S(=O)(Nc1ccccc1)c1ccc(NC(=S)Nc2ccccc2)cc1` is recorded as 0.22 mg/dL (refers to: CREA; female mouse, blood; oral, 20 mg/kg daily, 14 days).
`C[C@H]1CN(c2n[nH]c3nc(N[C@H]4CC[C@H](NS(=O)(=O)CCC(F)(F)F)CC4)ncc23)CCO1` gave a relative abundance of 0.96 (Receptor tyrosine-protein kinase erbB-4 (ERBB4, Homo sapiens, UniProt Q15303); inhibitor, Kinobeads competition profiling; 0.8 µM; baseline: vehicle).
For `C=CC(=O)N1CC[C@H](n2nc(C#Cc3cc(OC)cc(OC)c3)c3c(N)ncnc32)C1`, “adverse drug reaction incidence” read 18.2% (patients with advanced solid tumours; oral, dose not given, Stomatitis, any grade, QD, together with: sevelamer hydrochloride).
`CC(C)C[C@H](NC(=O)[C@H](CCCCN)NC(=O)OCC1c2ccccc2-c2ccccc21)C(=O)N[C@H](C(=O)N[C@@H](Cc1ccccc1)C(=O)N[C@@H](Cc1ccccc1)C(=O)N[C@@H](CCCCN)C(=O)NCC(=O)N[C@@H](Cc1ccccc1)C(=O)N[C@@H](C)C(=O)N[C@@H](Cc1c[nH]c2ccccc12)C(=O)N[C@@H](CC(N)=O)C(=O)N[C@H](C(=O)N[C@H]1CSSC[C@@H](C(=O)N[C@@H](Cc2c[nH]cn2)C(=O)N[C@@H](CCCNC(=N)N)C(=O)N[C@@H](CCCNC(=N)N)C(=O)N[C@@H](C)C(=O)N[C@@H](CC(N)=O)C(N)=O)NC(=O)[C@H](C(C)C)NC(=O)[C@H](CCCNC(=N)N)NC(=O)[C@H](C(C)C)NC(=O)CNC(=O)[C@H](CC(N)=O)NC(=O)[C@H](CCCNC(=N)N)NC(=O)[C@H](Cc2ccc(O)cc2)NC(=O)[C@H](C(C)C)NC1=O)C(C)C)C(C)C` gave a basophils of 1.63 ± 0.19% (ICR mice, blood; intraperitoneal, 10 mg/kg, day 5).
`CC(C)Nc1ccnc(Nc2cccc(-c3cccnc3)c2)n1` gave a blood chemistry of 24.3 mg/dL (refers to: BUN; mouse, blood; intraperitoneal, 10 mg/kg).

Some of these lines once more:
Under “subjects with drug-related TEAEs”, `C[C@]1(CO)Cc2ncn(-c3ccc(C#N)c(Cl)c3)c2C(=O)O1` is recorded as 28.6% (investigator-assessed; human; 20 mg single dose).
`COc1ccc(-c2c(-c3ccc(C#N)c(F)c3)nc(N3CCC(N)CC3)n(C)c2=O)cc1F` — result for “serious adverse event incidence”: 0% (refers to: Urticaria; human patients; oral, 60 mg, dose expansion).
`C[C@@H](NC(=O)N1C(=O)[C@H](Cc2ccnc(N)c2)[C@H]1C(=O)O)C1CCCCC1` — result for “incidence of urine occult blood positive”: 0% (healthy adult Chinese volunteers; continuous intravenous infusion, 2.25 mg/kg/h, 5-day infusion, CTCAE 5.0 grading).
